# Results pooled from the literature.
# Each numbered part is a random draw from the data of one study; scales do not carry over between parts. Positions count from the first letter of the parent shown.

# Sample 1
# Target: RNA binding protein fox-1 homolog 2, RRM domain, GST-SBP tag (RBFOX2, Homo sapiens, UniProt O43251-10, residues 100-194)
# Technique: RNA Bind-n-Seq
# Form: RNA
# Medium: in vitro
# Concentration: 365 nM
# Notes: natural RNA segment, single round, ends assumed
# Relative to: no-protein control
# Reading: higher = stronger binding
# All sequences stand within: GGGAGUUCUACAGUCCGACGAUC … UGGAAUUCUCGGGUGCCAA
# Residues (chain): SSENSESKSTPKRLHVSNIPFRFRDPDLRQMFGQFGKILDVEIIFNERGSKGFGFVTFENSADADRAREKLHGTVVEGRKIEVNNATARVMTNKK
Oligonucleotide,RBNS enrichment (R)
AACUGGAAACACUUGAAAGGGGACCCCAGGGCCAGCUGUUUCAGGGGUUUCCUGGACCACCCACUGCUUCUCCCCAACCCUGAUGCGCUGACAUUCCCUUAGCACCAGCU,0.292
UCCACCUGCUGCCCAAGGGAUGUGAGCUUGGACUUCGGGGCACUCUCAGGGGGCUGUGUCUGAGUGACGGGUGUAUGUCUGUCUCAGAGAAUGUGUGUCUGUGGCCCCAA,5.1
UUUCUGUGAUUGUCAUUAAAAAAAAAUUUACUGUUGUGAUAAGAAUUUUAUUUGUUUUGUUUAAAGCUACAUGUGCUUUUUUCUGUAAAUAAUAAAUUUUUGUAGAUAGU,1.07
UGAGAAGCAAGAACUUUUUCGGCGCGUAAUGGAAGAUAACGAAGAGGUGUCGUUCUUUUGUGACGUCAGCGUAUGUGUACCUAUUCCUUUGUUUGCGGUGUACUGAGGGA,1.89
AAGUGCAUUUUUCUAGGUAGACUCCUGCCCUCCUUGCUACCAGACCUGCAGCCACCUUGGUUUUGCCUUGGAGAACAUUUGGGGAGCAUUUCCUGAACCCAUGUCUUUUG,1.65
CCUAUCCCACACUGGCCCCACACCGGUGGUCUCCCUGCCUCAGCCAGGCUACUGCUGGGACACGCACAGGAAGGAGCAUGAGGGGGGGUUGGGAAGCAGUCGCCUGCCUG,0.469
UUGCUUGAGUCCAGGAAUUUGAGACCAGCCUGGACAACACAGUGAGACCUCAUCUCUAUCAAAAAAUAAAAAUUAGCUAGAUGUGGUGGCAUGAGCCUGUGUUCCCAGCU,0.792
CACGAGGGGGCUUUGAUGGCCCUGGAGAUCCUACAGUAAAUAAACCAGCAUCCUGCCGCCCAAAGCCGCCUCUUCUCAGUUGCCAAACGAGGGGCCUGCCCCCCGCCCUA,0.435
GAAUUAAUUGUAUUGUAAUAUUAUUUGUUGAAUGUAGUAAUUAGGUAUUUAUGAAUAUAUUGCUGUAAUUUCUGACAACAUCCAAAAAAUAAAAUCUUCCUAAAUUAUGU,0.455
ACUCCUUUUCUUUACAGCCGAAAUUGCUUUAAGUGAUGGUUAAAUUGACAAAUUAAGAUGUUAAUUUUUAUCGAUGUGAUUUGUAAUUAAGAUAUUUUGAUUUCAAUAAC,0.35
AGAUAACAUACCACAACACAAUGGAUAAUGUAUUUUAGAUAUAUUCUCUAAUAAAAUUGAGAACUCUAUUCUGGGUGCCUGAUUGUCUGCGCCACAGGGACAGAAAUGGG,0.873
CUUAAAUGAUAGGGACUUAAGAGUGCUGAUUGAAGAAAGAUCCUAUUCUUAGGUCUAACUCGAUUUUUGUGCUCAGGGAAGAUGCACUGAUGUCUUCAAAAAAAAAUCAA,0.302

# Sample 2
# Target: RING finger protein unkempt homolog, zinc fingers 1-6, SBP tag (UNK, Homo sapiens, UniProt Q9C0B0, residues 30-357)
# UniProt Q9C0B0, sequence (30-357, looked up): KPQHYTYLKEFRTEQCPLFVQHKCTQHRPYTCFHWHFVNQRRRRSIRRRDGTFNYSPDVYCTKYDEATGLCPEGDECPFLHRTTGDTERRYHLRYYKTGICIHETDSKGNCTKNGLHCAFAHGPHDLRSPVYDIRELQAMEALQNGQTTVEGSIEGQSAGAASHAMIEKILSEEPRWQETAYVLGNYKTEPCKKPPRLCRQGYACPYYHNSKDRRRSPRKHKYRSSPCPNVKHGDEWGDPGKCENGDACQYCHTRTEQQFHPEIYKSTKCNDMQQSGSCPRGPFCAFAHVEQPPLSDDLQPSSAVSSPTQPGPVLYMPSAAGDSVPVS
# Technique: RNA Bind-n-Seq
# Form: RNA
# Medium: in vitro
# Concentration: 100 nM
# Notes: RNA with constant flanks, vertebrate orthologous sites, ends assumed
# Relative to: input RNA pool
# Reading: higher = stronger binding
# All sequences stand within: GGGAGUUCUACAGUCCGACGAUC … CAACAGAGGAUUGAGCAUCA
Oligonucleotide,bound/input enrichment [ratio]
UAAAGUAGACUUUAUUUUAGGGAUGGAGCCGGGGAGUGGUGUGGAUGGGAGGCUGGUAUCAACAUCACUAAGUAUUCCGAAGGUCUUCUUGCUUUGUUUUUCCAUUUUAAUUGAUACACU,1.28
ACAUCCUUUCUACUGUCCCUGGCCAGGGCCAAGAGCUGGAUGUCUCACCGACGGCCUGCAUUUAAAACAUUUUUUAAAUCAUUGUACAAGAAGAGGUGUGUCUGAACAUCUCCAAGUCAA,0.351
CUGAAAUUACUGCAAAAGAGCCAAGCAGUAGUGUUGUUUUUUUGUAAAUGUAAAAAUGAUUAGAACUAGACUGUUUCCUUCAUUUUAAAAAUAAAAAAUACCUCAGUGCUAUAUAAUGUU,0.383
CACUAGUACCCUACCAGCCUACCGACCUCUGGUCUGUGCACAGCUUCAGAUGUUACCGUCUAGCUAGAUUUUUAUUUAAAAUAUGAAAAACUGCUUUUCCCAAGAUGUUUUUUAAAAACA,0.93
AAAUUUCCCCAUUGUCGCUGAGAACCACCAAAUCUGACUUUUACAUUUGGUCUCAGAAUUUAGGUUCCUGCCCUGUUGGUUUUUUUUUUUUUUUUUUAAACAGUUUUCAAAAGUUCUUAA,1.44
AUUCAAACCCGUGGUGCCCUGGCCUCACGUGGAAGGCGUAGAAGUGGACUUGGAGUCUAUUCGAAGAAGGAACAAGGCCAGACAUGAACAAGAGCGCCGCUCCGGAGGAGAGAACCAGAA,0.213
AUUCAAACCUGUGGUACCCUGGCCUCAUGUUGAAGGAGUAGAAGUGGACUUAGAAUCUAUUAGAAGAAAAAACAAGGCCAAAAAUGAACACGAGCACCAUGCUGGAGGAGAGAACCAGAG,0.608
GUUGUGACCCAUUUAACAUACACAAAAAACUAGCAAAAAAGAAUUUGCAUGUAAUUGACUUAGAUGACGCCACUUUUCUGAGUGCAAAAUUUGGAAGACAGCUUGUACCUGGUUGGAAGC,1.08
AUAGAAUUAUAGAAGAAACAUUUUUCGUCUUCCUUUAUCUUUUAAUCCCUACCUAAUACCUAGUCUACUUUUAAAAAUUUCAAACUUCACUGCUCUUUGAAUUGAUAAUUCCAAUUUUCA,3.38
AGCAACUCAAGGAUUCAGGACUGGUUUUACAAAUAUAGCAAGCAAAUAUGGAACUAACAGUAGAGGGCAGCCCAGACCAUGAAACACUGACAUUUGAUCUUAUUUAUUCUUAUUAGGGGU,1.06
AGAAAAUUUUAAUCAAGAAUCUGAAGGUAGAAAUACAGGACCAUGGUUAUCUUCCUCACUUAGAAAUAGAUGCACACCUUUGUUCUCUAGAAGGAGGCGAGAGGGAAGAGAUGAAUCUUC,0.775

# Sample 3
# Target: ABI1, truncated, D143A, DHFR fusion (Arabidopsis thaliana)
# Technique: DHFR PCA, deep sequencing
# Medium: yeast
# Notes: methotrexate growth selection, single substitutions
# Together with: (+)-ABA 0.11 µM
# Relative to: wild-type fitted maximum
# Reading: higher = stronger binding
# Starting sequence: PYL1, truncated, DHFR fusion (Arabidopsis thaliana); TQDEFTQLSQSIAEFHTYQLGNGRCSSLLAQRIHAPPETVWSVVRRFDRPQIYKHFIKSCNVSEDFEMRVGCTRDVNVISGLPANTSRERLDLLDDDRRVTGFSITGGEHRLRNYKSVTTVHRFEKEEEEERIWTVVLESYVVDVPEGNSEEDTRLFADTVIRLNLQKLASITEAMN; partner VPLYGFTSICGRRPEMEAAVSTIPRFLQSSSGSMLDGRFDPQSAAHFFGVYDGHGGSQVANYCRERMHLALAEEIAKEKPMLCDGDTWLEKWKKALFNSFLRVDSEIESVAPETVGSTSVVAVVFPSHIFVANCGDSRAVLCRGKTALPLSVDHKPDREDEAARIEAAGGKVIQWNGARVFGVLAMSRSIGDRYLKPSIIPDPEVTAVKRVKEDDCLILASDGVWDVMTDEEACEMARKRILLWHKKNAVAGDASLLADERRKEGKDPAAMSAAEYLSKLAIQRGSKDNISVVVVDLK
Substitution,relative binding score [%]
N77H,62.2
E67H,19.3
D95S,8.57
P37M,3.75
T73M,46.2
R111S,4.79
K54C,-4.83
L29C,6.81
A30R,9.59
T120N,-10.7
F15W,34.8
Q167C,11.8
E152W,1.91
T160I,-3.63
T86M,23.9
G23Q,3.81
L164M,30.1
I172R,-2.46

# Sample 4
# Target: CCNB2, cyclin fold, Cln2 fusion (human)
# Technique: yeast growth competition, sequencing
# Medium: yeast
# Notes: weak parent motif
# Relative to: not given
# Reading: higher = stronger binding
# Starting sequence: ORC1 docking peptide (human); PRARKRLELGNLG
Substitution,normalised enrichment score
K5D,-0.0889
R4W,0.44
P1E,0.736
N11K,0.424
L12H,0.71
L9V,1.02
R6M,0.754
A3D,-0.0865
A3V,0.325
K5A,0.228
R6T,0.564
R2H,0.215
L9I,0.529
L9M,0.688
L7H,0.126
R6F,0.874
G13F,0.488
R6K,0.599
R2S,-0.0385
L9W,0.26
E8P,0.641
L9H,0.385
G10W,1.2
K5C,0.128
G13P,0.0981

# Sample 5
# Target: Histone acetyltransferase KAT6A, winged helix 1, GST fusion (KAT6A, Homo sapiens, UniProt Q92794, residues 1-85)
# Technique: protein binding microarray
# Form: double-stranded DNA, one strand shown
# Medium: in vitro
# Concentration: not given
# Notes: 8-mer, flanks averaged, mean of 2 arrays, mostly near background
# Relative to: not given
# Reading: higher = stronger binding
# Construct (chain): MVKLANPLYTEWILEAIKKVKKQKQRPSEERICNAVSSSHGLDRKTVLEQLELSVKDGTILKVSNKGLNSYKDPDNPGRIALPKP
Oligonucleotide,E-score
GTCACTTA,-0.0905
AAGCTCTG,-0.17
GGCAGTGA,-0.0385
CCATCTGC,0.091
CTGGATTA,-0.126
TATTACGA,0.0247
CCACCTTC,-0.24
AGCGAAAA,-0.118
CACTTCGC,-0.0999
GCCCGAAC,0.0573
ACCTTTGG,-0.0891
AATCAGCT,-0.227
GCTTCTCA,-0.00912
GGGCAGAC,0.0611
AGCGATTG,-0.0245
GTATATCA,0.0345
AACACCAA,-0.246
CTTTGTGA,-0.174
AGCCAGTA,-0.12
AAAGCGCA,0.29
TACGCGTA,0.417
CTACGGAC,0.31

# Excerpt of the above (sample 2):
Oligonucleotide,bound/input enrichment [ratio]
ACAUCCUUUCUACUGUCCCUGGCCAGGGCCAAGAGCUGGAUGUCUCACCGACGGCCUGCAUUUAAAACAUUUUUUAAAUCAUUGUACAAGAAGAGGUGUGUCUGAACAUCUCCAAGUCAA,0.351
CUGAAAUUACUGCAAAAGAGCCAAGCAGUAGUGUUGUUUUUUUGUAAAUGUAAAAAUGAUUAGAACUAGACUGUUUCCUUCAUUUUAAAAAUAAAAAAUACCUCAGUGCUAUAUAAUGUU,0.383
CACUAGUACCCUACCAGCCUACCGACCUCUGGUCUGUGCACAGCUUCAGAUGUUACCGUCUAGCUAGAUUUUUAUUUAAAAUAUGAAAAACUGCUUUUCCCAAGAUGUUUUUUAAAAACA,0.93
AAAUUUCCCCAUUGUCGCUGAGAACCACCAAAUCUGACUUUUACAUUUGGUCUCAGAAUUUAGGUUCCUGCCCUGUUGGUUUUUUUUUUUUUUUUUUAAACAGUUUUCAAAAGUUCUUAA,1.44
AUUCAAACCCGUGGUGCCCUGGCCUCACGUGGAAGGCGUAGAAGUGGACUUGGAGUCUAUUCGAAGAAGGAACAAGGCCAGACAUGAACAAGAGCGCCGCUCCGGAGGAGAGAACCAGAA,0.213
AUUCAAACCUGUGGUACCCUGGCCUCAUGUUGAAGGAGUAGAAGUGGACUUAGAAUCUAUUAGAAGAAAAAACAAGGCCAAAAAUGAACACGAGCACCAUGCUGGAGGAGAGAACCAGAG,0.608
